# Results collected from several papers.
# Lines come from different studies, so protocols differ. Substitutions count along the parent as printed. Numbers after ± are the reported error.
# polA D424A: polA fragment D424A (Escherichia coli)
# MED5: MED5 (Saccharomyces cerevisiae)
# P1: MED17 (Saccharomyces cerevisiae); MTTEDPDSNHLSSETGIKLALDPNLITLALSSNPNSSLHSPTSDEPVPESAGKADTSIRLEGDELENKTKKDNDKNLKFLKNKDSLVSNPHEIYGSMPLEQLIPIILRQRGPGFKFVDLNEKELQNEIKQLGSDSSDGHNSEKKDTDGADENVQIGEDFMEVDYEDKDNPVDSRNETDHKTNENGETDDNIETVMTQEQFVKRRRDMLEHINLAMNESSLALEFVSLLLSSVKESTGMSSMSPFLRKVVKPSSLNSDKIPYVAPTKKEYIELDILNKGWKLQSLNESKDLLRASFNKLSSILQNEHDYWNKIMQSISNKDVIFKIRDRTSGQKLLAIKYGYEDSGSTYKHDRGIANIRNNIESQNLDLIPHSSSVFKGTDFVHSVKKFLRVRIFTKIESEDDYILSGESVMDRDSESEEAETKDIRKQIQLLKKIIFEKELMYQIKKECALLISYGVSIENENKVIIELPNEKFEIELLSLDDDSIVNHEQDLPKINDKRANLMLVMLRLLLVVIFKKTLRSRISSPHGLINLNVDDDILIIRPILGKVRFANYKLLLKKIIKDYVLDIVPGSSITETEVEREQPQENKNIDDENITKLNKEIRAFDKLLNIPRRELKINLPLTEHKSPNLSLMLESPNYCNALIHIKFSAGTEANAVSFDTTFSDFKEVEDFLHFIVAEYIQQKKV
# B1: protein (Thermotoga neapolitana, UniProt B9K712); chain MKMLYDLAKKRKTVRRFKKEKPPLEDLIYSLKVANEAPSGMNAQPWRFLIVEDEKLKGQIRRVCERSEKTFYENVRGRLKEWLDEKRFTWRKPFLKEAPYLLLVFSEKSAPYSRESVWLAVGYLLLALEEKGLGSVPYTPPDFREVEKLVNTPSELRLEVILPVGYPDDPKPKYPRNEVIVRYNTF
# Sequence of UniProt Q8MQJ9 (whole entry, looked up): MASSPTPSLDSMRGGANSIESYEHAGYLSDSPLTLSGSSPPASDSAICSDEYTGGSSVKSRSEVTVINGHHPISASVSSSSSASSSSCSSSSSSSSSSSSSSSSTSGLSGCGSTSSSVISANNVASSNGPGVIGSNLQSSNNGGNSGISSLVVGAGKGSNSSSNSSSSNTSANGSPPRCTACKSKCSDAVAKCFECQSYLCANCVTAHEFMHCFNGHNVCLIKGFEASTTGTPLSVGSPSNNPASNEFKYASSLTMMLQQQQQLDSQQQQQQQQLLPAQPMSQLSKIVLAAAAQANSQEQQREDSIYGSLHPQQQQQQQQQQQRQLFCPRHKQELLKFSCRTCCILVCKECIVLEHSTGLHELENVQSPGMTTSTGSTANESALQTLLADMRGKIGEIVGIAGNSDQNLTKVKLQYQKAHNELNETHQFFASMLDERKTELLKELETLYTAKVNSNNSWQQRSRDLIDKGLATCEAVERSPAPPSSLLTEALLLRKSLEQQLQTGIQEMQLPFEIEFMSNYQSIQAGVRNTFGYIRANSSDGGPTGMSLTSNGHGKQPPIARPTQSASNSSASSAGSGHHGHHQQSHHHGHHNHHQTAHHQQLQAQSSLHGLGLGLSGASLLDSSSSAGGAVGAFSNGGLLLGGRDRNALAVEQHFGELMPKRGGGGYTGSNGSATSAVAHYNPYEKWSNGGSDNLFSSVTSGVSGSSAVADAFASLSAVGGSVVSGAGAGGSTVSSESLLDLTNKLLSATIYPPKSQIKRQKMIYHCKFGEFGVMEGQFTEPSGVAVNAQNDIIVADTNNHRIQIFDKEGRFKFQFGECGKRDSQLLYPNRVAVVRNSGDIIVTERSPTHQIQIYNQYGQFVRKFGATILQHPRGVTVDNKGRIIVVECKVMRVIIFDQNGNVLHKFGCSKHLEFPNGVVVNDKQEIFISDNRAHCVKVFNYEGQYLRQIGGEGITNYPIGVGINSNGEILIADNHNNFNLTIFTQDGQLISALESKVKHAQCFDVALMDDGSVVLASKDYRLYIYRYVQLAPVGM
# Sequence of UniProt Q94JM3 (whole entry, unmodified, looked up): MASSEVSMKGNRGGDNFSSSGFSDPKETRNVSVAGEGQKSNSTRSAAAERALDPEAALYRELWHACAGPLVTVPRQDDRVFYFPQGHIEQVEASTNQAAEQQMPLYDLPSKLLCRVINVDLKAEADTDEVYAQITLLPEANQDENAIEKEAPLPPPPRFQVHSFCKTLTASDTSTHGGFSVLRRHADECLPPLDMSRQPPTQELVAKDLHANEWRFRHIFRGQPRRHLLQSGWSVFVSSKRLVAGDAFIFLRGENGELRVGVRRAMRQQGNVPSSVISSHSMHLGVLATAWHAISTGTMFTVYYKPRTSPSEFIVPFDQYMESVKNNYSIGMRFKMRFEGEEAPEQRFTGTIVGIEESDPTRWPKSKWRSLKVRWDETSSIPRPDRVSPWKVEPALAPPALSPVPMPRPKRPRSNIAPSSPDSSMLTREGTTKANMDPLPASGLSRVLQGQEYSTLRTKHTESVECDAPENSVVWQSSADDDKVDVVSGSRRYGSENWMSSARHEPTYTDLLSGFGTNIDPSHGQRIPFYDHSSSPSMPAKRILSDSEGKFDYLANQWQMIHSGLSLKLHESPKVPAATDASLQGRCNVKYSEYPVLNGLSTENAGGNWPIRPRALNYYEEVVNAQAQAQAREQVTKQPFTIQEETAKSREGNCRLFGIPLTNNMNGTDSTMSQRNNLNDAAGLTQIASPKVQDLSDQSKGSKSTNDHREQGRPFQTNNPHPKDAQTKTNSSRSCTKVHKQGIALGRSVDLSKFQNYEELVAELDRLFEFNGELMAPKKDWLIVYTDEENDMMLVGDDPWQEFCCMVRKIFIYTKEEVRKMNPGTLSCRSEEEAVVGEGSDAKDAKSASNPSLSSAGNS
# Sequence of UniProt P17676 (whole entry, looked up): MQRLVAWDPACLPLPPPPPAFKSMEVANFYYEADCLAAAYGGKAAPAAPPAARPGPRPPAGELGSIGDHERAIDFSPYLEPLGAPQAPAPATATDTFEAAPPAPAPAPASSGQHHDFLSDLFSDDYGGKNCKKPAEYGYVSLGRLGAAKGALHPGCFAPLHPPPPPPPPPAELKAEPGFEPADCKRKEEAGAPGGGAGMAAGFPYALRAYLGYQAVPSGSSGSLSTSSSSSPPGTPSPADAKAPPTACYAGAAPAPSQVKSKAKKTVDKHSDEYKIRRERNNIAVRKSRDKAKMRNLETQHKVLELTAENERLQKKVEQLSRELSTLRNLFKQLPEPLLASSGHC
# Sequence of UniProt P21889 (whole entry, looked up): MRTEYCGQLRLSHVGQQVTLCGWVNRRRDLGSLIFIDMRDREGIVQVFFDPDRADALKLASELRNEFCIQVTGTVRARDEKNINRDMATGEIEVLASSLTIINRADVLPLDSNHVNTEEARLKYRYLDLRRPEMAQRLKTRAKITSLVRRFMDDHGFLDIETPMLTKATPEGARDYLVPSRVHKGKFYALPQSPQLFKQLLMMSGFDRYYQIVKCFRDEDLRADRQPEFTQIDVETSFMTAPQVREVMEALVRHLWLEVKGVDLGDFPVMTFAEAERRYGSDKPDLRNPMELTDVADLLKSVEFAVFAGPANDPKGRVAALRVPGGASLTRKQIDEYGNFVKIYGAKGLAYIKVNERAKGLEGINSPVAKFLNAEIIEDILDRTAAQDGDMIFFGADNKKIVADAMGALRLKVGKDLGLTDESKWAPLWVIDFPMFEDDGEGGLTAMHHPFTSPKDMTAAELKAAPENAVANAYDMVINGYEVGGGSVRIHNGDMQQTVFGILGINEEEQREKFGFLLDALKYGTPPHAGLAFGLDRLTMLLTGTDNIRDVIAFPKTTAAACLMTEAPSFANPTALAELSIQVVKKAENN
Molecule,tested on,test,system,setting,scale,measurement,value
AAAAAGAA (ssRNA),"lin28b 125-175 (Xenopus tropicalis, UniProt B4F6I0)",ITC,RNA,,,Kd,11.9 ± 2.2 µM
"CCTCTTCCCTCACCTCTTCTTGACCTCATTCGTACCCATTGACCTTCGCAACCACCTGCGAAGGTCAATGGGTACGAATGAGGT (hairpin DNA; hairpin, 5' overhang, 3' ddT)",polA D424A,SPR,,with: dATP 100 µM,,Kd,0.0035 ± 0.0011 µM
AGTCTTTTTGGTCTCTGGTCGGTCGACAATCCGTGTG (dsDNA; 5-C6-amino-dT labels),"ARF2 1-859 K737S (Arabidopsis thaliana, UniProt Q94JM3)",smFRET titration,"double-stranded DNA, one strand shown",,,K1/2,90.5 nM
AAGGUAUUAGAAAAACCAUUUCAUAACUUUGUCAAAGUUAAAUUAUAGGCUAAAUCCUAUAUAUCUUACCA (tRNA (Homo sapiens)),"aspS full length assumed (Escherichia coli, UniProt P21889)",ITC,folded RNA,,,Kd,22 µM
TATTTTGTTGTCGAAAATTGTACATAA (ssDNA (Drosophila melanogaster); dT instead of dU),"brat 756-1037 (Drosophila melanogaster, UniProt Q8MQJ9)",EMSA,single-stranded DNA,,,binding,no binding
P1 M504P,MED5,co-IP mass spectrometry,crude extract,,higher = more binding,peptide counts,13
B1 (protein),N[C@@H](Cc1ccc(O)c(Cl)c1)C(=O)O,steady-state kinetics,,"pH 7.4, 60 °C",,kcat,0.0483 ± 0.01 s⁻¹
P1 Q444P,MED5,co-IP mass spectrometry,crude extract,,higher = more binding,peptide counts,11
"GACAUGGUCCGGUAGUUCAGUUGGUUAGAAUGCCUGCCUGUCACGCAGGAGGUCGCGGGUUCGAGUCCCGUCCGGACCG (tRNA (Bacillus subtilis); 5'-GMPS, tRNA fold)","PRORP1 77-572 R184K (Arabidopsis thaliana, UniProt Q66GI4)",fluorescence anisotropy,folded RNA,"NaCl 1 M, extrapolated",reference: wild-type target,relative affinity,10 fold
AGGATTGCGCAATAT (dsDNA; 5mC at central CpG),"CEBPB 269-344 (Homo sapiens, UniProt P17676)",fluorescence polarization,"double-stranded DNA, one strand shown",,"reference: C:G, higher = stronger binding",relative affinity,< 3 fold
AAGAAGAAAGCATTTGAAGACTACTA (dsDNA),"Transcription factor bHLH93 (Gossypium hirsutum, UniProt A0ABM3A805)",EMSA,"double-stranded DNA, one strand shown",,,binding,binds
"CCTCTTCCCTCACCTCTTCTTGACCTCATTCGTACCCATTGACCTTCGCAACCACCTGCGAAGGTCAATGGGTACGAATGAGGT (hairpin DNA; hairpin, 5' overhang, dG-C8-FABP 22, 3' ddT)",polA D424A,SPR,,with: dCTP 100 µM,,Kd,0.0003 ± 3e-05 µM

# A few entries again:
Molecule,tested on,test,system,setting,scale,measurement,value
AAGAAGAAAGCATTTGAAGACTACTA (dsDNA),"Transcription factor bHLH93 (Gossypium hirsutum, UniProt A0ABM3A805)",EMSA,"double-stranded DNA, one strand shown",,,binding,binds
